# Measurements gathered from unrelated publications.
# Lines come from different studies, so protocols differ. ± gives the spread as reported.
# Kir3.1/Kir3.2: Kir3.1/Kir3.2 (Homo sapiens, UniProt P48051+P48549)
# Sequence of UniProt P48051 (whole entry, looked up): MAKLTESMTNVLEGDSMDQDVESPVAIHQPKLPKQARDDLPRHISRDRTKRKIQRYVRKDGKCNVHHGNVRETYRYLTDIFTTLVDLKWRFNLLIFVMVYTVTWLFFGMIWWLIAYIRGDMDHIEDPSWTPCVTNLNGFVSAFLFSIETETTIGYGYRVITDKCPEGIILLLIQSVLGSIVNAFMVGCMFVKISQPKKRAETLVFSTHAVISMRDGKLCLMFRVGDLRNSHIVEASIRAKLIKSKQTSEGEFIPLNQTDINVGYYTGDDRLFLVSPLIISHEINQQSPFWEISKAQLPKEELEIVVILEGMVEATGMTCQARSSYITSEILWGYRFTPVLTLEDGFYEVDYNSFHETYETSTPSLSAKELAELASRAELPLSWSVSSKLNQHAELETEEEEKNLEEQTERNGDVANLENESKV
# Sequence of UniProt P48549 (whole entry, looked up): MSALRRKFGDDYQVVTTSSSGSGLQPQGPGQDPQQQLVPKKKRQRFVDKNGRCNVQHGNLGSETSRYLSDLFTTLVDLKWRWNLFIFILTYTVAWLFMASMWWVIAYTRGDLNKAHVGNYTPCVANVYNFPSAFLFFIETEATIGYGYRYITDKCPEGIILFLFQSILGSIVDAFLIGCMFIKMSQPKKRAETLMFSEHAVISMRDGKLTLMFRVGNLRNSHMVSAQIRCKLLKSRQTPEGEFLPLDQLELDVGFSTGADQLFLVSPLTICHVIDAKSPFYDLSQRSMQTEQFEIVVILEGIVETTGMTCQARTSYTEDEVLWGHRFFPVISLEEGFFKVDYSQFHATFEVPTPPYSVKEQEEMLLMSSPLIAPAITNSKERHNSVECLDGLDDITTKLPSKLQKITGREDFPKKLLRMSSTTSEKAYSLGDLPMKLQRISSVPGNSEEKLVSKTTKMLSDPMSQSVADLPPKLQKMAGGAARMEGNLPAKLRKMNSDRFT
# GPBAR1: G-protein coupled bile acid receptor 1 (GPBAR1, Homo sapiens, UniProt Q8TDU6)
# Sequence of UniProt Q8TDU6 (whole entry, looked up): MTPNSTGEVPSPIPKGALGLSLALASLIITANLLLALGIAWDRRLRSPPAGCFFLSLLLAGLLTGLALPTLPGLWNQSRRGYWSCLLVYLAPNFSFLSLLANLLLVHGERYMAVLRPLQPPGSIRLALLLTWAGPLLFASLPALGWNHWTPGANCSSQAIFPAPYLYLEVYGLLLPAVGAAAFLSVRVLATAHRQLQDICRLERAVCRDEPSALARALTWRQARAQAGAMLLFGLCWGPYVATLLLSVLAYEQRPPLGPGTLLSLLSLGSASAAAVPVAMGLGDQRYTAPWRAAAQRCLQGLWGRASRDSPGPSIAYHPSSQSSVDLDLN
# NPBWR1: Neuropeptides B/W receptor type 1 (NPBWR1, Homo sapiens, UniProt P48145)
# Sequence of UniProt P48145 (whole entry, looked up): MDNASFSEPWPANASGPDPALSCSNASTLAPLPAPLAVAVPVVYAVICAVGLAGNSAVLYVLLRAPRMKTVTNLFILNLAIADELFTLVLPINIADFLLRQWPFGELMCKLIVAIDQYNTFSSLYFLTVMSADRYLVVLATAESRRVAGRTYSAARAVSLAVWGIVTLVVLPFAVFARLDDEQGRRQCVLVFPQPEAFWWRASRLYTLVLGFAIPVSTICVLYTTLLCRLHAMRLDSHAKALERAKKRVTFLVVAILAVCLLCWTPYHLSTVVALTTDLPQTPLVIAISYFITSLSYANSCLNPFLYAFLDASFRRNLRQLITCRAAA
# G-protein coupled receptor 39: G-protein coupled receptor 39 (Mus musculus, UniProt Q5U431)
# Sequence of UniProt Q5U431 (whole entry, looked up): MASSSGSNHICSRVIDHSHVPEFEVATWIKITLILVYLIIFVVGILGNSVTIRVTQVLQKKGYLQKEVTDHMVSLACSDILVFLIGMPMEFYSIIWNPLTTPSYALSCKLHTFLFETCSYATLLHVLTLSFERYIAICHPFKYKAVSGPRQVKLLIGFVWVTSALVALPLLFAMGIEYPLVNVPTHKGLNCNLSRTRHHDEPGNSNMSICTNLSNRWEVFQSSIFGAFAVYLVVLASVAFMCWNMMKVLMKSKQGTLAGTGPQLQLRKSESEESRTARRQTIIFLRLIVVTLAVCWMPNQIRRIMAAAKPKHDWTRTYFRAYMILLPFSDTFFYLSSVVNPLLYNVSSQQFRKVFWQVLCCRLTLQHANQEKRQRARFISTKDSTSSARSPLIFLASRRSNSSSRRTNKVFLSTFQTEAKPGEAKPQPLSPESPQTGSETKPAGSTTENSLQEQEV
# CXCL8: Interleukin-8 (CXCL8, Homo sapiens, UniProt P10145)
# Sequence of UniProt P10145 (whole entry, looked up): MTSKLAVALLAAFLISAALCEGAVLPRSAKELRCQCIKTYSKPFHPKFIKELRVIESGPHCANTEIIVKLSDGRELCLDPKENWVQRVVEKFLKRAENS
# CXCL12: Stromal cell-derived factor 1 (CXCL12, Homo sapiens, UniProt P48061)
# Sequence of UniProt P48061 (whole entry, looked up): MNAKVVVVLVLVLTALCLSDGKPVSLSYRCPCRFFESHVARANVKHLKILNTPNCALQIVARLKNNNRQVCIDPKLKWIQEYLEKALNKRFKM
# ADGRG1: ADGRG1 (Homo sapiens, UniProt Q9Y653)
# Sequence of UniProt Q9Y653 (whole entry, unmodified, looked up): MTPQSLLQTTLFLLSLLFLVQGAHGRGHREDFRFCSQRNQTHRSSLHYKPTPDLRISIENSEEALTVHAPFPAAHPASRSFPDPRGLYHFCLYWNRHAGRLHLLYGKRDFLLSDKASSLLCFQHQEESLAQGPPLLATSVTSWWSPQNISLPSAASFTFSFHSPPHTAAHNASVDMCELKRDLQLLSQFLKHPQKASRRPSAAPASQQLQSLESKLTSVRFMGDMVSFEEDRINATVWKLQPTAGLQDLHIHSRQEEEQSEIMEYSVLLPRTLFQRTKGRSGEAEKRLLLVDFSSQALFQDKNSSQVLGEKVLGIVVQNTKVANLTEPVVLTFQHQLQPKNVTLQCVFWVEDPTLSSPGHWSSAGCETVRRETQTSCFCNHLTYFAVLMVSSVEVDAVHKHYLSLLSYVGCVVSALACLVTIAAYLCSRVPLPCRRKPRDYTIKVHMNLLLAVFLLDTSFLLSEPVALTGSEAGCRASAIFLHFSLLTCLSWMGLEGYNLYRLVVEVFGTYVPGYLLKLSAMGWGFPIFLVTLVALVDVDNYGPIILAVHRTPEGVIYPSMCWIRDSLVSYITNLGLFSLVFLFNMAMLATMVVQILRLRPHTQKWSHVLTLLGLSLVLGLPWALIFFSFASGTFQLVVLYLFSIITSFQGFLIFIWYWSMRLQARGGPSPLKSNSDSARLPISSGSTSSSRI
# Sequence of UniProt Q2G036 (whole entry, looked up): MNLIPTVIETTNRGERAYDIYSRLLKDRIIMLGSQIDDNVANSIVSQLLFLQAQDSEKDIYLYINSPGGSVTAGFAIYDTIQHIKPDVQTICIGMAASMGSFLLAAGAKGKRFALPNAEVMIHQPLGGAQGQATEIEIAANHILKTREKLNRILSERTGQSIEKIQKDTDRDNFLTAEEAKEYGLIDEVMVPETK
# Sequence of UniProt A7T1N0 (whole entry, unmodified, looked up): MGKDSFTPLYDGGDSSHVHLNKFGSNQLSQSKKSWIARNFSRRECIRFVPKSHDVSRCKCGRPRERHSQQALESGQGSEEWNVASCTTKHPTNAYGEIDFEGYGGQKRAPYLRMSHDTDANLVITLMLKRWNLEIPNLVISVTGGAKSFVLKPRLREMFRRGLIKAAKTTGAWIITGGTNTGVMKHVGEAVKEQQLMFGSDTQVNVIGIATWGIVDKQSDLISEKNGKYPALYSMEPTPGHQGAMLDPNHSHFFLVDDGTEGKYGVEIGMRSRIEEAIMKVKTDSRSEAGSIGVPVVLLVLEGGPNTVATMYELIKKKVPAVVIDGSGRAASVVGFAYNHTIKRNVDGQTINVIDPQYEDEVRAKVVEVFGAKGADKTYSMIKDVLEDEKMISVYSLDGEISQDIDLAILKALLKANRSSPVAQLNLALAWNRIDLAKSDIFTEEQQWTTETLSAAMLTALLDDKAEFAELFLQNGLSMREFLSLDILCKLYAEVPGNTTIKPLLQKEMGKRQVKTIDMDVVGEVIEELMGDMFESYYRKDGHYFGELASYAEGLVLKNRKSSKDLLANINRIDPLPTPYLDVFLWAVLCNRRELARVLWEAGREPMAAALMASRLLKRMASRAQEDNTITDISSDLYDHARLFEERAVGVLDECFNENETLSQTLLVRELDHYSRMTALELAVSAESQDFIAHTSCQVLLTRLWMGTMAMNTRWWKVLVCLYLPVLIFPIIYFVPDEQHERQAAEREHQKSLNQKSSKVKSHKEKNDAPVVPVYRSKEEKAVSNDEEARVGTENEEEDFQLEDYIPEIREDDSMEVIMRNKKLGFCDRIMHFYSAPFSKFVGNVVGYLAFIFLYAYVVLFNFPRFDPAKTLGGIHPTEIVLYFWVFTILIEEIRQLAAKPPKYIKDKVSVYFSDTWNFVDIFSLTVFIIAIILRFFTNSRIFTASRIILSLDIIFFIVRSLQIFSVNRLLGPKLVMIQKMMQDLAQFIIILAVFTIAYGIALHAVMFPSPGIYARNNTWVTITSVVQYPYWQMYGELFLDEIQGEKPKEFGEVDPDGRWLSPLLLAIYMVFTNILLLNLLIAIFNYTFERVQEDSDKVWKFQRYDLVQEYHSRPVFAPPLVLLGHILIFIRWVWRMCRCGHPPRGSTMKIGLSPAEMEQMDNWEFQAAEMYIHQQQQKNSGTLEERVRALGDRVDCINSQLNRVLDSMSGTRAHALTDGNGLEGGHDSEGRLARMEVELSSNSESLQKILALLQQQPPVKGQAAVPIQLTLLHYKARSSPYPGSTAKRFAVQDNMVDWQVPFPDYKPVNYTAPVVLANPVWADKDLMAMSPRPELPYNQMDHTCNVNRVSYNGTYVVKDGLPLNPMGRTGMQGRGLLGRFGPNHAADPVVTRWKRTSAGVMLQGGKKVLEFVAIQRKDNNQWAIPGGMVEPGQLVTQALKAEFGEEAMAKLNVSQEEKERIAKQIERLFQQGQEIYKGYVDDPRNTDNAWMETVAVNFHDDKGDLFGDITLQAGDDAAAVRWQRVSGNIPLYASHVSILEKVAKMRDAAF
Structure (SMILES),tested on,assay,system,conditions,scale,measurement,result
CCc1cc(NC(=O)COc2ccc(C(F)(F)F)cc2C(F)(F)F)n(C2CCC(F)(F)CC2)n1,Kir3.1/Kir3.2,"activator, thallium flux",HEK293,,,EC50,0.33 µM
COc1ccc(C(=O)c2c(C(=O)NCCCN(C)C)oc3ccc(Cl)cc3c2=O)cc1OC,"GHSR (Homo sapiens, UniProt Q92847, R199A)","Gαq dissociation, TRUPATH BRET",HEK293T,,,EC50,0.0741 µM
CC(CCC(=O)O)C1CCC2C3C(O)CC4CC(OS(=O)(=O)O)CCC4(C)C3CCC12C (stereo not drawn),GPBAR1,agonist,,,,EC50,> 200 µM
CC1=NC(C)C(C)S1 (stereo not drawn),"Olfactory receptor (Mus musculus, UniProt Q8VGQ8)","cAMP, agonist",HEK293 transfected with Olfactory receptor,,,EC50,651 ± 123 µM
CC(CCC(=O)NCC(=O)O)C1CCC2C3C(O)CC4CC(O)CCC4(C)C3CC(O)C12C (stereo not drawn),GPBAR1,agonist,,,,EC50,27.7 ± 5.3 µM
O=C1C2=C(CCN(Cc3ccccc3)C2)N2CCN=C2N1Cc1ccc(C(F)(F)F)cc1,"clpP (Staphylococcus aureus, UniProt Q2G036)",activator,,,,EC50,1.4 µM
COC1CN([C@H]2CC[C@H]([C@@]3(C)Oc4c(Cl)cc(C(=O)NCc5c(SC)cc(C)[nH]c5=O)c(C)c4O3)CC2)C1,,"RNA-seq, item: MAML2","human, whole blood","dose not given, 24 h",reference: pretreatment baseline,log2 fold change,1.4
CC(C)C[C@H](NC(=O)CNC(=O)[C@H](C)NC(=O)[C@H](C)NC(=O)[C@H](CCCNC(=N)N)NC(=O)CNC(=O)CCCCNC(=O)CCCCNC(=O)CCCCNC(=O)[C@H](CCCCN)NC(=O)[C@H](Cc1ccc(O)cc1)NC(=O)[C@@H](N)Cc1c[nH]c2ccccc12)C(=O)N[C@H](C(N)=O)C(C)(C)C,NPBWR1,"calcium signal, agonist",,,,EC50,0.479 µM
C[C@H](CCC(=O)NCC(=O)O)[C@H]1CC[C@H]2[C@@H]3CC[C@@H]4C[C@H](OS(=O)(=O)O)CC[C@]4(C)[C@H]3CC[C@]12C,G-protein coupled receptor 39,"calcium signal, agonist, fluorescence",,,,EC50,47.9 µM
Nc1ncnc2c1ncn2[C@@H]1O[C@H](COP(=O)(O)OP(=O)(O)OC[C@H]2OC(O)[C@H](O)[C@@H]2O)[C@@H](O)[C@H]1OP(=O)(O)O (stereo partly drawn),"TRPM2 (Nematostella vectensis, UniProt A7T1N0, S478C)",agonist,,,,EC50,0.091 ± 0.003 µM
CC(CCC(=O)O)C1CCC2C3CCC4CC(OS(=O)(=O)O)CCC4(C)C3CC(O)C12C (stereo not drawn),GPBAR1,agonist,,,,EC50,290 ± 85.5 µM
CC(C)(O)c1ccn2c(-c3ccc(F)c(-c4ccc(F)cc4C#N)c3)cnc2c1F,"GABRA1 (Homo sapiens, UniProt P14867, G251D)","Western blot, item: GABRA1 G251D protein level",HEK293T stably expressing α1 G251D,24 h,,EC50,2.6 ± 0.1 µM
C[C@H](CCC(=O)O)[C@H]1CC[C@H]2[C@@H]3CC[C@@H]4C[C@H](OS(=O)(=O)O)CC[C@]4(C)[C@H]3CC[C@]12C,G-protein coupled receptor 39,"calcium signal, agonist, fluorescence",,,,EC50,41 µM
CC(=O)N[C@@H]1[C@@H](O[C@@H]2O[C@H](C(=O)O)[C@@H](O[C@@H]3O[C@H](COS(=O)(=O)O)[C@@H](O)[C@H](O[C@@H]4O[C@H](C(=O)O)[C@@H](O)[C@H](O)[C@H]4O)[C@H]3NC(C)=O)[C@H](O)[C@H]2O)[C@H](O)[C@@H](COS(=O)(=O)O)O[C@H]1N=[N+]=[N-],CXCL8,fluorescence polarization competition,,"CXCL8 800 nM, 100% DW, with: TAMRA-labelled probe",,EC50,3410 ± 507 µM
Cn1c(=O)n(C2CCC(=O)NC2=O)c2ccc(C3CCN(CC(=O)Nc4cccc(CS(=O)(=O)N5CC[C@H](Nc6cccc(-c7sc(C(=O)O)c(OCC(=O)O)c7Cl)c6)CC5(C)C)c4)CC3)cc21 (stereo partly drawn),"Dual specificity protein phosphatase 10 (Homo sapiens, UniProt Q9Y6W6)",phosphatase activity,,with: DiFMUP substrate,,EC50,> 10 µM
CSCC[C@H](NC(=O)[C@H](CC(C)C)NC(=O)CNC(=O)[C@H](Cc1ccccc1)NC(=O)[C@H](Cc1ccccc1)NC(=O)[C@@H](N)CCC(N)=O)C(N)=O,"Substance-P receptor, with miniGs (TACR1, Homo sapiens, UniProt P25103)","miniGs recruitment, BRET",HEK293,30 min,,EC50,1 µM
CC(C)C[C@H](NC(=O)CNC(=O)[C@H](C)NC(=O)[C@H](C)NC(=O)[C@H](CCCNC(=N)N)NC(=O)CNC(=O)CCCCNC(=O)CCCCNC(=O)CCCCNC(=O)[C@H](CCCCN)NC(=O)[C@H](C)NC(=O)[C@@H](N)Cc1c[nH]c2ccccc12)C(=O)N[C@@H](CC(C)C)C(=O)N[C@@H](CO)C(N)=O,NPBWR1,"calcium signal, agonist",,,,EC50,> 10 µM
CC(=O)N[C@@H]1[C@@H](O[C@@H]2O[C@H](C(=O)O)[C@@H](O[C@@H]3O[C@H](COS(=O)(=O)O)[C@@H](OS(=O)(=O)O)[C@H](O[C@@H]4O[C@H](C(=O)O)[C@@H](O[C@@H]5O[C@H](COS(=O)(=O)O)[C@@H](OS(=O)(=O)O)[C@H](O[C@@H]6O[C@H](C(=O)O)[C@@H](OS(=O)(=O)O)[C@H](OS(=O)(=O)O)[C@H]6OS(=O)(=O)O)[C@H]5NC(C)=O)[C@H](OS(=O)(=O)O)[C@H]4OS(=O)(=O)O)[C@H]3NC(C)=O)[C@H](OS(=O)(=O)O)[C@H]2OS(=O)(=O)O)[C@H](OS(=O)(=O)O)[C@@H](COS(=O)(=O)O)O[C@H]1N=[N+]=[N-],CXCL12,"probe displacement, FP competition",,"protein 60 nM, with: TAMRA-labelled sHA tetramer probe",,EC50,2.3 ± 0.976 µM
Cc1cc(NC(=O)COc2ccc(Cl)cc2Cl)n(CC(F)(F)F)n1,Kir3.1/Kir3.2,"activator, thallium flux",HEK293,,,EC50,0.22 µM
CC(=O)N[C@@H]1[C@@H](O[C@@H]2O[C@H](C(=O)O)[C@@H](O[C@@H]3O[C@H](CO)[C@@H](OS(=O)(=O)O)[C@H](O[C@@H]4O[C@H](C(=O)O)[C@@H](OS(=O)(=O)O)[C@H](OS(=O)(=O)O)[C@H]4OS(=O)(=O)O)[C@H]3NC(C)=O)[C@H](OS(=O)(=O)O)[C@H]2OS(=O)(=O)O)[C@H](OS(=O)(=O)O)[C@@H](CO)O[C@H]1N=[N+]=[N-],CXCL8,fluorescence polarization competition,,"CXCL8 800 nM, 100% DW, with: TAMRA-labelled probe",,EC50,12.5 ± 3.6 µM
O=C(COc1cccc(Cl)c1Cl)Nc1cc(C2CC2)nn1CC(F)(F)F,Kir3.1/Kir3.2,"activator, thallium flux",HEK293,,,EC50,> 10 µM
CC(CCC(=O)NCCS(=O)(=O)O)C1CCC2C3C(O)CC4CC(OS(=O)(=O)O)CCC4(C)C3CCC12C (stereo not drawn),GPBAR1,agonist,,,,EC50,> 200 µM
CCN(CC)C(CO)c1cccc2c(C)c(C)oc12 (stereo not drawn),"LPAR1 (Homo sapiens, UniProt Q92633, W210A)","Gi activation, agonist, NanoBiT G-protein dissociation",HEK293T,W210A mutant,,EC50,0.0468 µM
CC(=O)N[C@@H]1[C@@H](O[C@@H]2O[C@H](C(=O)O)[C@@H](OS(=O)(=O)O)[C@H](OS(=O)(=O)O)[C@H]2OS(=O)(=O)O)[C@H](OS(=O)(=O)O)[C@@H](COS(=O)(=O)O)O[C@H]1N=[N+]=[N-],CXCL8,fluorescence polarization competition,,"CXCL8 800 nM, 100% DW, with: TAMRA-labelled probe",,EC50,133 ± 16.1 µM
CC(C)C[C@H](NC(=O)CNC(=O)[C@H](C)NC(=O)[C@H](C)NC(=O)[C@H](CCCNC(=N)N)NC(=O)CNC(=O)CCCCNC(=O)CCCCNC(=O)CCCCNC(=O)[C@H](CCCCN)NC(=O)[C@H](Cc1ccc(O)cc1)NC(=O)[C@@H](N)Cc1c[nH]c2ccccc12)C(=O)N[C@H](CC(C)C)C(N)=O,NPBWR1,"calcium signal, agonist",,,,EC50,0.463 µM
O=C(Cc1ccc(OCc2ccccc2)cc1)NC1(C(=O)O)CCN(C(=O)c2ccc(-c3cccc(Cl)c3)cc2)CC1,"S1PR3 (Homo sapiens, UniProt Q99500)","cAMP, agonist, luciferase",,,,EC50,> 10 µM
COc1ccc(C2(C(=O)N3CCC(Nc4nc5ccccc5c(=O)[nH]4)CC3)CC2)cc1,"MRGPRD (Homo sapiens, UniProt Q8TDS7)","miniGq recruitment, agonist, BRET1",HEK293T,,,EC50,0.212 µM
CC1=C(C(=O)OC(C)C)C(c2ccccc2C)C2=C(CC(C)(C)CC2=O)N1 (stereo not drawn),ADGRG1,"G13 activation, agonist, GTPγS binding, reconstitution",,,,EC50,9.38 ± 0.7 µM
CC(=O)N[C@@H]1[C@@H](O[C@@H]2O[C@H](C(=O)O)[C@@H](O[C@@H]3O[C@H](COS(=O)(=O)O)[C@@H](OS(=O)(=O)O)[C@H](O[C@@H]4O[C@H](C(=O)O)[C@@H](OS(=O)(=O)O)[C@H](OS(=O)(=O)O)[C@H]4OS(=O)(=O)O)[C@H]3NC(C)=O)[C@H](OS(=O)(=O)O)[C@H]2OS(=O)(=O)O)[C@H](OS(=O)(=O)O)[C@@H](COS(=O)(=O)O)O[C@H]1N=[N+]=[N-],CXCL12,fluorescence polarization competition,,"CXCL12 388 nM, 200% DW, with: TAMRA-labelled probe",,EC50,5 ± 0.7 µM
CC(CCC(=O)NCC(=O)O)C1CCC2C3CCC4CC(O)CCC4(C)C3CC(O)C12C (stereo not drawn),GPBAR1,agonist,,,,EC50,1.9 ± 0.7 µM
CC1=C(C(=O)OC2CCCC2)C(c2ccccc2Cl)C2=C(CC(C)(C)CC2=O)N1 (stereo not drawn),ADGRG1,"G13 activation, agonist, GTPγS binding, reconstitution",,,,EC50,1.89 ± 0.22 µM
CC(CCC(=O)NCCS(=O)(=O)O)C1CCC2C3CCC4CC(OS(=O)(=O)O)CCC4(C)C3CCC12C (stereo not drawn),G-protein coupled receptor 39,"calcium signal, agonist, fluorescence",,,,EC50,71.6 µM
CNc1ncnc2c1ncn2C1OC(CO)C(O)C1O (stereo not drawn),"ADORA3 (Homo sapiens, UniProt P0DMS8, V169T)","G protein activation, agonist",,,,EC50,0.011 µM

# Some of these lines once more:
Structure (SMILES),tested on,assay,system,conditions,scale,measurement,result
CC(=O)N[C@@H]1[C@@H](O[C@@H]2O[C@H](C(=O)O)[C@@H](O[C@@H]3O[C@H](COS(=O)(=O)O)[C@@H](OS(=O)(=O)O)[C@H](O[C@@H]4O[C@H](C(=O)O)[C@@H](OS(=O)(=O)O)[C@H](OS(=O)(=O)O)[C@H]4OS(=O)(=O)O)[C@H]3NC(C)=O)[C@H](OS(=O)(=O)O)[C@H]2OS(=O)(=O)O)[C@H](OS(=O)(=O)O)[C@@H](COS(=O)(=O)O)O[C@H]1N=[N+]=[N-],CXCL12,fluorescence polarization competition,,"CXCL12 388 nM, 200% DW, with: TAMRA-labelled probe",,EC50,5 ± 0.7 µM
Nc1ncnc2c1ncn2[C@@H]1O[C@H](COP(=O)(O)OP(=O)(O)OC[C@H]2OC(O)[C@H](O)[C@@H]2O)[C@@H](O)[C@H]1OP(=O)(O)O (stereo partly drawn),"TRPM2 (Nematostella vectensis, UniProt A7T1N0, S478C)",agonist,,,,EC50,0.091 ± 0.003 µM
CCN(CC)C(CO)c1cccc2c(C)c(C)oc12 (stereo not drawn),"LPAR1 (Homo sapiens, UniProt Q92633, W210A)","Gi activation, agonist, NanoBiT G-protein dissociation",HEK293T,W210A mutant,,EC50,0.0468 µM
CC(CCC(=O)O)C1CCC2C3CCC4CC(OS(=O)(=O)O)CCC4(C)C3CC(O)C12C (stereo not drawn),GPBAR1,agonist,,,,EC50,290 ± 85.5 µM
CC(C)C[C@H](NC(=O)CNC(=O)[C@H](C)NC(=O)[C@H](C)NC(=O)[C@H](CCCNC(=N)N)NC(=O)CNC(=O)CCCCNC(=O)CCCCNC(=O)CCCCNC(=O)[C@H](CCCCN)NC(=O)[C@H](C)NC(=O)[C@@H](N)Cc1c[nH]c2ccccc12)C(=O)N[C@@H](CC(C)C)C(=O)N[C@@H](CO)C(N)=O,NPBWR1,"calcium signal, agonist",,,,EC50,> 10 µM
Cn1c(=O)n(C2CCC(=O)NC2=O)c2ccc(C3CCN(CC(=O)Nc4cccc(CS(=O)(=O)N5CC[C@H](Nc6cccc(-c7sc(C(=O)O)c(OCC(=O)O)c7Cl)c6)CC5(C)C)c4)CC3)cc21 (stereo partly drawn),"Dual specificity protein phosphatase 10 (Homo sapiens, UniProt Q9Y6W6)",phosphatase activity,,with: DiFMUP substrate,,EC50,> 10 µM
